Measurements from different studies.
Each line is one published result; not all experiments were run side by side. ± marks the error that the study gave.
Technique: steady-state kinetics
B1: Mj-MAT W387F/Y49W (Methanocaldococcus jannaschii, UniProt Q58605); chain MRNIIVKKLDVEPIEERPTEIVERKGLGHPDSICDGIAESVSRALCKMWMEKFGTILHHNTDQVELVGGHAYPKFGGGVMVSPIYILLSGRATMEILDKEKNEVIKLPVGTTAVKAAKEYLKKVLRNVDVDKDVIIDCRIGQGSMDLVDVFERQKNEVPLANDTSFGVGYAPLSTTERLVLETERFLNSDELKNEIPAVGEDIKVMGLREGKKITLTIAMAVVDRYVKNIEEYKEVIEKVRKKVEDLAKKIADGYEVEIHINTADDYERESVYLTVTGTSAEMGDDGSVGRGNRVNGLITPFRPMSMEAASGKNPVNHVGKIYNILANLIANDIAKLEGVKECYVRILSQIGKPINEPKALDIEIITEDSYDIKDIEPKAKEIANKFLDNIMEVQKMIVEGKVTTF
B2: protein (UniProt M4ZR24); chain MNEIGTTWAEGTSERVIRLLTDKRAGRPMSGPDIEGLVKDFTAGSVPDYQMASWLATVACAGLSAEELTALTAAYVDSGERLSLSSSRRPVADKHSTGGVGDKTTLVVAPVVAACGIGVGKVTGRGLGFMGGTVDKLESIPGLDLELSGSALSAQVADLGLAVTGQSPSLVPGDRMTYALRDVTGTVDSIPLIAASIMSKNTKGIAVRCNSIVLDVKYGDGAVLPDRAVATELARTMLELGRSFDLPTTAVISSMEQPLGYAVGNGLEVREAIIALSGTYVEDLTELAITISALMISTADSAVDHDRARDRVREVLSDGSALRMFRAFVARQGGDVGFVDDPSRLETAPHRLVVTATEAGHVARIAARRIGEAALRVGAGRLVYGAPIDHGAGIVLSRRIGDSVAEGEPLATLHGSDYDQLESLADVVRGCFDISERPPGRPDVIVDVLRQGDAG
B3: enzyme (Streptomyces purpurascens, UniProt Q54527); chain MSSSSPGEPLEPTDQDLDVLLKNLGNLVTPMALRVAATLRLVDHLLAGADTLAGLADRTDTHPQALSRLVRHLTVVGVLEGGEKQGRPLRPTRLGMLLADGHPAQQRAWLDLNGAVSHADLAFTGLLDVVRTGRPAYAGRYGRPFWEDLSADVALADSFDALMSCDEDLAYEAPADAYDWSAVRHVLDVGGGNGGMLAAIALRAPHLRGTLVELAGPAERARRRFADAGLADRVTVAEGDFFKPLPVTADVVLLSFVLLNWSDEDALTILRGCVRALEPGGRLLVLDRADVEGDGADRFFSTLLDLRMLTFMGGRVRTRDEVVDLAGSAGLALASERTSGSTTLPFDFSILEFTAVSEEAAPAAQASEALPAQE
B4: protein Y93S (Thermus thermophilus, UniProt Q5SKR5); chain MSAPKPFVIGIAGGTASGKTTLAQALARTLGERVALLPMDHYYKDLGHLPLEERLRVNYDHPDAFDLALYLEHAQALLRGLPVEMPVYDFRASTRSPRRTPVRPAPVVILEGILVLYPKELRDLMDLKVFVDADADERFIRRLKRDVLERGRSLEGVVAQYLEQVKPMHLHFVEPTKRYADVIVPRGGQNPVALEMLAAKALARLARMGAA
B5: sacB S173G (Priestia megaterium, UniProt D5DC07); chain KGNDSKDFNNSYGISHITRDNMVKIPQQQNSDQFKVPAFDESTIKNIASAKGKNASGNTIDLDVWDSWPLQNADGTVATYHGYQIVFALAGDPKDSNDTSVYLFYKKAGDKSIDSWKNAGRVFKDSDKFVPNDPHLKNQTQEWGGSGTLTKDGKVRLFYTDYSGKQYGKQTLTTAQVNMSQPNDNTLKVDGVEDYKSIFDGDGKIYQTVQQFIDEGGYDTGDNHTLRDPHYIEDNGHKYLVFEANTGTEDGYQGEDSLYNRAYYGGNNPFFQSEKKKLLEGSNKEKASLANGALGIIELNDDYTLKKVMKPLITSNTVTDEIERANIFKKDGKWYLFTDSRGSKMTIDGIGQDDVYMLGYVSNTLTGKYKPLNDTGLVLHMDLDPNDKTFTYSHFAVPQTKGDNVVITSYMTNRGFYEDNHSTFAPSFLVNIDGSKTSVVKDRVLEQGQLTVDED
B6: iodotyrosine deiodinase (Haliscomenobacter hydrossis, UniProt F4KU78); chain MKQKPAFIPYAGAQFEPEEMLSKSAEYYQFMDHRRTVREFSNRAIPLEVIENIVMTASTAPSGAHKQPWTFVVVSDPQIKAKIRQAAEKEEFESYNGRMSNEWLEDLQPFGTDWHKPFLEIAPYLIVVFRKAYDVLPDGTQRKNYYVQESVGIACGFLLAAIHQAGLVALTHTPSPMNFLQKILQRPENERPFLLVPVGYPAEGAMVPDLQRKDKAAVMVVY
B7: Msh2/Msh3 (Saccharomyces cerevisiae); chain 1 MSSTRPELKFSDVSEERNFYKKYTGLPKKPLKTIRLVDKGDYYTVIGSDAIFVADSVYHTQSVLKNCQLDPVTAKNFHEPTKYVTVSLQVLATLLKLCLLDLGYKVEIYDKGWKLIKSASPGNIEQVNELMNMNIDSSIIIASLKVQWNSQDGNCIIGVAFIDTTAYKVGMLDIVDNEVYSNLESFLIQLGVKECLVQDLTSNSNSNAEMQKVINVIDRCGCVVTLLKNSEFSEKDVELDLTKLLGDDLALSLPQKYSKLSMGACNALIGYLQLLSEQDQVGKYELVEHKLKEFMKLDASAIKALNLFPQGPQNPFGSNNLAVSGFTSAGNSGKVTSLFQLLNHCKTNAGVRLLNEWLKQPLTNIDEINKRHDLVDYLIDQIELRQMLTSEYLPMIPDIRRLTKKLNKRGNLEDVLKIYQFSKRIPEIVQVFTSFLEDDSPTEPVNELVRSVWLAPLSHHVEPLSKFEEMVETTVDLDAYEENNEFMIKVEFNEELGKIRSKLDTLRDEIHSIHLDSAEDLGFDPDKKLKLENHHLHGWCMRLTRNDAKELRKHKKYIELSTVKAGIFFSTKQLKSIANETNILQKEYDKQQSALVREIINITLTYTPVFEKLSLVLAHLDVIASFAHTSSYAPIPYIRPKLHPMDSERRTHLISSRHPVLEMQDDISFISNDVTLESGKGDFLIITGPNMGGKSTYIRQVGVISLMAQIGCFVPCEEAEIAIVDAILCRVGAGDSQLKGVSTFMVEILETASILKNASKNSLIIVDELGRGTSTYDGFGLAWAIAEHIASKIGCFALFATHFHELTELSEKLPNVKNMHVVAHIEKNLKEQKHDDEDITLLYKVEPGISDQSFGIHVAEVVQFPEKIVKMAKRKANELDDLKTNNEDLKKAKLSLQEVNEGNIRLKALLKEWIRKVKEEGLHDPSKITEEASQHKIQELLRAIANEPEKENDNYLKYIKALLL; chain 2 MAGQPTISRFFKKAVKSELTHKQEQEVAVGNGAGSESICLDTDEEDNLSSVASTTVTNDSFPLKGSVSSKNSKNSEKTSGTSTTFNDIDFAKKLDRIMKRRSDENVEAEDDEEEGEEDFVKKKARKSPTAKLTPLDKQVKDLKMHHRDKVLVIRVGYKYKCFAEDAVTVSRILHIKLVPGKLTIDESNPQDCNHRQFAYCSFPDVRLNVHLERLVHHNLKVAVVEQAETSAIKKHDPGASKSSVFERKISNVFTKATFGVNSTFVLRGKRILGDTNSIWALSRDVHQGKVAKYSLISVNLNNGEVVYDEFEEPNLADEKLQIRIKYLQPIEVLVNTDDLPLHVAKFFKDISCPLIHKQEYDLEDHVVQAIKVMNEKIQLSPSLIRLVSKLYSHMVEYNNEQVMLIPSIYSPFASKIHMLLDPNSLQSLDIFTHDGGKGSLFWLLDHTRTSFGLRMLREWILKPLVDVHQIEERLDAIECITSEINNSIFFESLNQMLNHTPDLLRTLNRIMYGTTSRKEVYFYLKQITSFVDHFKMHQSYLSEHFKSSDGRIGKQSPLLFRLFSELNELLSTTQLPHFLTMINVSAVMEKNSDKQVMDFFNLNNYDCSEGIIKIQRESESVRSQLKEELAEIRKYLKRPYLNFRDEVDYLIEVKNSQIKDLPDDWIKVNNTKMVSRFTTPRTQKLTQKLEYYKDLLIRESELQYKEFLNKITAEYTELRKITLNLAQYDCILSLAATSCNVNYVRPTFVNGQQAIIAKNARNPIIESLDVHYVPNDIMMSPENGKINIITGPNMGGKSSYIRQVALLTIMAQIGSFVPAEEIRLSIFENVLTRIGAHDDIINGDSTFKVEMLDILHILKNCNKRSLLLLDEVGRGTGTHDGIAISYALIKYFSELSDCPLILFTTHFPMLGEIKSPLIRNYHMDYVEEQKTGEDWMSVIFLYKLKKGLTYNSYGMNVAKLARLDKDIINRAFSISEELRKESINEDALKLFSSLKRILKSDNITATDKLAKLLSLDIH
B8: anthranilate synthase (Streptomyces venezuelae, UniProt O30589); chain MDLSRLLDPSCPPFALLRRRTPGRDHDTVEVLIGRVHEAERLAELPVGPLPALALVPFRQIRERGFDVRDDGTPLSVLVAEETHTLPLAEALDRLPAHDVTVEDGGFDVSDEEYAGIVRRVIDEEIGSGEGANFVIRRTYTGEIPGFGRADALALFRRLLAGERGAYWTFVVHTGDRTLVGASPEVHVRMSGGTVVMNPISGTYRYPAGAAPTAEGLLAFLADRKETEELSMVVDEELKMMCTVGDMGGVVIGPRLKEMAHLAHTEYELRGRSSLDVREVLRETMFAATVTGSPVQNACRVIERHEVGGRGYYAGALALLGTDENGAQSLDSPILIRTADIAADGHLRVPVGATLVRHSDPAGEVAETHAKAAGVLTALGVREGRPAGGPAPAPTALADDPRVRAALDARRADLAPFWLRMQVRSAELSGHALVIDAEDTFTAMLAHVLRSSGLDVSVLRYDEPGLRELALAHEGPVVLGPGPGNPSDAADPKMRFLRALTADLVRDHRHGLLGVCLGHELIAAELGLEIVRKRTPFQGAQMRIDLFGQERTVGFYNSFTARCDERTATELALHRIEVSRDAETGEVHALRGPGFAGVQFHPESVLTTDGAALTASLLAGVLV
UniProt P38999, sequence (whole entry, looked up): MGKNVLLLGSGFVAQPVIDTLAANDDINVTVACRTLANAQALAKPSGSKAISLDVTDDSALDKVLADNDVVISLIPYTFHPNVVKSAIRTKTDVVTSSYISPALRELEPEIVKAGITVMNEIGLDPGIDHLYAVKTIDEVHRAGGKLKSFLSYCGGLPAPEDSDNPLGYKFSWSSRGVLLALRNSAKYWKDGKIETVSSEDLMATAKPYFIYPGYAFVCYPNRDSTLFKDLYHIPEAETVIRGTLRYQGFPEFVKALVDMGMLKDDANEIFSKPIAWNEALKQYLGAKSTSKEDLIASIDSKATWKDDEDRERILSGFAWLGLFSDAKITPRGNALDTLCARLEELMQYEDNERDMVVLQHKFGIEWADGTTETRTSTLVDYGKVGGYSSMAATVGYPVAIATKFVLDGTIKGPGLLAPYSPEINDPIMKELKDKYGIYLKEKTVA
UniProt Q9LTH3, sequence (whole entry, looked up): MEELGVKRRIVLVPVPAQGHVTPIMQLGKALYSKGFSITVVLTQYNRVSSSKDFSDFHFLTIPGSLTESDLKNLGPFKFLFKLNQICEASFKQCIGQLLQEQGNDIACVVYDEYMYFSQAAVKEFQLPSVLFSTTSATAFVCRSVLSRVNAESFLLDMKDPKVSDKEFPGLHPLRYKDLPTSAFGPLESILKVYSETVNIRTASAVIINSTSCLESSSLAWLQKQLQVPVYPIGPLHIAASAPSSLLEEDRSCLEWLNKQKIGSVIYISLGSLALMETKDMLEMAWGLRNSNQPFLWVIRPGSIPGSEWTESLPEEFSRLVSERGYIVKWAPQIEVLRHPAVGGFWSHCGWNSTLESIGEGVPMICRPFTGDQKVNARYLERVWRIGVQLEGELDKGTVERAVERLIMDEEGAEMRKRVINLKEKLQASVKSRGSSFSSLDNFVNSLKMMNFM
UniProt P45370, sequence (whole entry, looked up): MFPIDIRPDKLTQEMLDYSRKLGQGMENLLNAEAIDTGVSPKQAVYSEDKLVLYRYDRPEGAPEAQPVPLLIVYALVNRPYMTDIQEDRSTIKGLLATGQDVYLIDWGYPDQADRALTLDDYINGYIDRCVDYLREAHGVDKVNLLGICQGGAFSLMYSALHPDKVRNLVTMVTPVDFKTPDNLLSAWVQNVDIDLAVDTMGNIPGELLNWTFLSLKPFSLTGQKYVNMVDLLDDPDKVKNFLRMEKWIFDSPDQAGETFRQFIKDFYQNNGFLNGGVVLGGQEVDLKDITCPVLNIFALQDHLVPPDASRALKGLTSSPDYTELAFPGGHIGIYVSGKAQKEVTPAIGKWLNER
UniProt P27306, sequence (whole entry, looked up): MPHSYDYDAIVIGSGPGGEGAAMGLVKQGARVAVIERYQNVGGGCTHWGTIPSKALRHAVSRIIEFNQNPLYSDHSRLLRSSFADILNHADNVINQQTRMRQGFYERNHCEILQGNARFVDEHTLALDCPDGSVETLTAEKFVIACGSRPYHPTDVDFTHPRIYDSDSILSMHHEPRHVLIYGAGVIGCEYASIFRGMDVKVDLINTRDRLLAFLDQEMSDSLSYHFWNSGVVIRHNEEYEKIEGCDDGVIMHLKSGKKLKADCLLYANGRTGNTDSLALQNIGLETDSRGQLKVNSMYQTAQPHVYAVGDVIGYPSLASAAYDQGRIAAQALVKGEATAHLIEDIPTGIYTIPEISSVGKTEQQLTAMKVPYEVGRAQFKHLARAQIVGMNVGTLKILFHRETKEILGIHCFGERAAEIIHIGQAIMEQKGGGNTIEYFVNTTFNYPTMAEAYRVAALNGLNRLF
UniProt Q8QZR1, sequence (whole entry, looked up): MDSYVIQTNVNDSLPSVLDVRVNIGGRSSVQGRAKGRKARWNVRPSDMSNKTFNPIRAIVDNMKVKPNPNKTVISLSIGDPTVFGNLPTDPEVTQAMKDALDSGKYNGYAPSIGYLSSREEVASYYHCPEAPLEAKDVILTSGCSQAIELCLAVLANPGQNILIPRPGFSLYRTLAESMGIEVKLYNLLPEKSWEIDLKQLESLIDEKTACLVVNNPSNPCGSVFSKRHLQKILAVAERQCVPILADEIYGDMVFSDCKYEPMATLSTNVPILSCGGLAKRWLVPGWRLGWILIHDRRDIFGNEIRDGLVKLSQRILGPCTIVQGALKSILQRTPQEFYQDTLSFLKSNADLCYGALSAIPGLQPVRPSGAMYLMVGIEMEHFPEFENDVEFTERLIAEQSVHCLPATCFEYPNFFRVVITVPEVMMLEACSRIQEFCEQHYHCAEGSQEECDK

With `B1 (Mj-MAT W387F/Y49W)` the kcat was 1 ± 0.3 s⁻¹ (CSCC[C@H](N)C(=O)O; 55 °C, together with: ATP 2.5 mM, methionine 0.05-1 mM).
`Tat (Mus musculus, UniProt Q8QZR1)` has a kcat of 1.83 ± 0.5 s⁻¹ (CCCCC(=O)C(=O)O; pH 7, 38 °C, together with: PLP).
The kcat of `B2 (protein)` is reported as 0.0667 ± 0.005 s⁻¹ (NC[C@H]1O[C@@H](n2ccc(=O)[nH]c2=O)[C@H](O)[C@@H]1O; phosphorolysis, single substrate, together with: phosphate).
`B3 (enzyme)` has a kcat of 9.45 ± 0.383 s⁻¹ (CC[C@@]1(O)C[C@H](O[C@H]2C[C@H](N)[C@H](O)[C@H](C)O2)c2c(O)c3c(c(O)c2[C@H]1C(=O)O)C(=O)c1cccc(O)c1C3=O; pH 7.5, 30 °C).
For `enzyme (Arabidopsis thaliana, UniProt Q9LTH3)`, the kcat was 0.00832 s⁻¹ (O=c1ccn([C@@H]2O[C@H](CO[P@@](=O)(O)O[P@@](=O)(O)O[C@H]3O[C@H](CO)[C@@H](O)[C@H](O)[C@H]3O)[C@@H](O)[C@H]2O)c(=O)[nH]1; pH 7.5, 25 °C).
`B4 (protein Y93S)` gave a kcat of 7.1 ± 0.6 s⁻¹ (Nc1ccn([C@@H]2O[C@H](CO)[C@@H](O)[C@H]2O)c(=O)n1; pH 7.2, 25 °C, KCl 100 mM, together with: ATP 100–200 µM).
The kcat of `B5 (sacB S173G)` is reported as 8.7 ± 0.4 s⁻¹ (OC[C@H]1O[C@@](CO)(O[C@H]2O[C@H](CO)[C@@H](O)[C@H](O)[C@H]2O)[C@@H](O)[C@@H]1O; pH 6.6).
With `B6 (iodotyrosine deiodinase)` the kcat was 0.27 ± 0.05 s⁻¹ (N[C@@H](Cc1cc(F)c(O)c(I)c1)C(=O)O; pH 7.4, 25 °C).
`sthA (Escherichia coli, UniProt P27306)` has a kcat of 30 ± 1 s⁻¹ (NC(=O)C1=CN([C@@H]2O[C@H](COP(=O)(O)OP(=O)(O)OC[C@H]3O[C@@H](n4cnc5c(N)ncnc54)[C@H](OP(=O)(O)O)[C@@H]3O)[C@@H](O)[C@H]2O)C=CC1; pH 7.5, 37 °C, NaCl 150 mM, together with: thio-NAD+ 200 µM).
The kcat of `protein (Allochromatium vinosum, UniProt P45370)` is reported as 2.99 s⁻¹ (C#CC[C@@H](O)CC(=O)SCCNC(=O)CCNC(=O)[C@H](O)C(C)(C)COP(=O)(O)OP(=O)(O)OC[C@H]1O[C@@H](n2cnc3c(N)ncnc32)[C@H](O)[C@@H]1OP(=O)(O)O; pH 7.8, 30 °C).
With `B7 (Msh2/Msh3)` the kcat was 0.353 s⁻¹ (Nc1ncnc2c1ncn2[C@@H]1O[C@H](COP(=O)(O)OP(=O)(O)OP(=O)(O)O)[C@@H](O)[C@H]1O; pH 7.5, 30 °C, no DNA, together with: magnesium acetate 2 mM).
The kcat of `B8 (anthranilate synthase)` is reported as 0.57 ± 0.02 s⁻¹ (C=C(O[C@@H]1C=C(C(=O)O)C=C[C@H]1O)C(=O)O; pH 7.5, 30 °C, together with: glutamine saturating; MgCl2 12.5 mM).
For `Saccharopine reductase (Saccharomyces cerevisiae, UniProt P38999)`, the kcat was 13 ± 1 s⁻¹ (N[C@@H](CCCCN[C@@H](CCC(=O)O)C(=O)O)C(=O)O; pH 9, 25 °C, together with: saccharopine).

Excerpt of the above:
`Tat (Mus musculus, UniProt Q8QZR1)` has a kcat of 1.83 ± 0.5 s⁻¹ (CCCCC(=O)C(=O)O; pH 7, 38 °C, together with: PLP).
